Measurements gathered from unrelated publications.
Each line is one published result; not all experiments were run side by side. “And” joins repeats or separate records; there may be more than shown. ± marks the error that the study gave.

Structure (SMILES) | tested on | test | test system | conditions | scale | endpoint | result
CC(C)(C)NCC(SS(=O)(=O)O)c1ccccc1 (stereo not shown) | Schistosoma mansoni | – | infected Swiss Webster mice | 200 mg/kg single, dosed day 42, perfusion day 56 | – | mean male worms recovered | 12 worms per mouse
COC1CN([C@H]2CC[C@H]([C@@]3(C)Oc4c(Cl)cc(C(=O)NCc5c(SC)cc(C)[nH]c5=O)c(C)c4O3)CC2)C1 | – | RNA-seq, item: SPATA6 | human, whole blood | dose not given, 24 h | relative to: pretreatment baseline | log2 fold change | 1.28
COC1OC(C)C(O)C(OC2OC(C)C(O)C(OC3OC(C)C(O)C(OC4OC(C)C(O)C(OC5OC(C)C(O)C(OC6OC(C)C(O)C(OC7OC(C)C(O)C(OS(=O)(=O)O)C7OS(=O)(=O)O)C6OS(=O)(=O)O)C5OS(=O)(=O)O)C4OS(=O)(=O)O)C3OS(=O)(=O)O)C2OS(=O)(=O)O)C1OS(=O)(=O)O (stereo not shown) | – | – | human plasma | 128 µg/mL | relative to: control | thrombin time prolongation | 1 fold
CCN(CC)CC(=O)Nc1cccc(-n2cc(-c3ccc4ccc(-c5cn(-c6cccc(NC(=O)CN(CC)CC)c6)nn5)cc4c3)nn2)c1 | RCC4 | PCR array, item: PDGFA | – | 5 x IC50, 2 h, normoxia | relative to: untreated | fold regulation | 1.01
C=CC(=O)N1[C@@H](c2ccc3c(c2)OCO3)c2[nH]c3ccccc3c2C[C@H]1C(=O)N1CCN(C)CC1 | CCNE1 WT-3xFLAG:CDK2 complex | co-IP TMT proteomics, item: ATAD3A | HEK-293T | 20 µM, 6 h | relative to: DMSO | log2 fold change | -0.03
COC1OC(C)C(O)C(OC2OC(C)C(O)C(OC3OC(C)C(O)C(OC4OC(C)C(O)C(OC5OC(C)C(O)C(OS(=O)(=O)O)C5OS(=O)(=O)O)C4OS(=O)(=O)O)C3OS(=O)(=O)O)C2OS(=O)(=O)O)C1OS(=O)(=O)O (stereo not shown) | – | – | human plasma | 128 µg/mL | relative to: control | thrombin time prolongation | 1 fold
c1ccc(-c2n[nH]cc2-c2ccnc3ccccc23)nc1 | IRE1 (Candida albicans) | kinase binding, MIB/MS competition | Candida albicans lysate | 10 µM | relative to: DMSO | log2 fold change | -0.15
COc1ccccc1-c1ccncc1C(=O)Nc1nnc(OCc2ccc(Cl)cc2)s1 | DLD-1 BRCA2-/- | – | – | 1 µM | – | colony count | 22 and 35 and 18 and 19 and 33 and 15
C=C(NC(=O)c1csc(-c2nc3c(cc2O)-c2nc(cs2)C(=O)NC(C(C)O)C(=O)NC(=C(C)OC)c2nc(cs2)C(=O)NC2c4nc(cs4)C(=O)NC(COC(=O)c4c5c6c(cccc6n4O)COC(=O)C(OC4CC(C)(O)C(N(C)C)C(C)O4)C2OC5)c2nc-3cs2)n1)C(N)=O (stereo not shown) | Streptococcus pneumoniae | – | ATCC 49619, immunocompromised mice, lung infection | tid dosing | – | lung bacterial load at ED50 | 5.34 log CFU/g
Nc1ncc(-c2cc(-c3cnn(CC(F)(F)F)c3)ncc2F)nc1C(=O)NC1CNCC(F)C1 (stereo not shown) | PAK1 | KINOMEscan | – | 1 µM | relative to: DMSO control | remaining binding | 85%
COC1OC(C)C(OC2OC(C)C(OS(=O)(=O)O)C(OC3OC(C)C(OC4OC(C)C(OS(=O)(=O)O)C(OS(=O)(=O)O)C4OS(=O)(=O)O)C(OS(=O)(=O)O)C3OS(=O)(=O)O)C2OS(=O)(=O)O)C(OS(=O)(=O)O)C1OS(=O)(=O)O (stereo not shown) | – | – | human plasma | 128 µg/mL | – | thrombin time | 10.7 ± 0.5 s
COc1cc(O)ccc1CCC(c1ccc(O)cc1)c1cc2c(c(C)c1O)OC(c1ccc(O)cc1)CC2 (mixture of isomers) | – | item: PGE2 | human blood | 3 µM, added: Escherichia coli stimulation | – | lipid mediator level | 887 ± 418 pg/mL blood
CN1CCCNC(=O)c2cccc(c2)C(=O)NCCCN(C)CCCNc2cccc3c2C(=O)c2cccc(c2C3=O)NCCC1 | SAS | RNA-Seq, item: ZDHHC24 mRNA | – | 1 µM, 6 h | relative to: untreated cells | log2 fold change | -0.733
COC1OC(C)C(OC2OC(C)C(O)C(OC3OC(C)C(OC4OC(C)C(O)C(OS(=O)(=O)O)C4OS(=O)(=O)O)C(OS(=O)(=O)O)C3OS(=O)(=O)O)C2OS(=O)(=O)O)C(OS(=O)(=O)O)C1OS(=O)(=O)O (stereo not shown) | – | – | human plasma | 128 µg/mL | relative to: control | thrombin time prolongation | 0.9 fold
COc1cc2c(NC3CCN(C(C)C)CC3)cc(N3CCOCC3)nc2cc1OCCCN1CCCC1 | – | TMT quantitative proteomics, item: NPTXR | 5xFAD mice, hippocampus | dose not given | – | normalised protein abundance | 0.0224 and 0.0836 and 0.102 and 0.0965 and 0.072 and 0.114 and 0.00711 and 0.0709
CC(C)c1ccc(N(C)c2ccc3c(c2)OCC[C@H]3CNc2cnccc2C(=O)O)cc1 | SK-MEL3 | cell growth or viability, ATP luminescence | – | 7 days | – | IC50 | 0.472 µM
Cc1ncsc1-c1ccc(C(C)NC(=O)C2CC(O)CN2C(=O)C(NC(=O)CCCCCCCCCCN2CCCC(Nc3ncc(Cl)c(Nc4ccccc4S(=O)(=O)C(C)C)n3)C2)C(C)(C)C)cc1 (stereo not shown) | 22Rv1 | RNA-seq, item: NACC2 mRNA | – | concentration not given | relative to: DMSO | log2 fold change | -1.33
C=CC(=O)Nc1cccc(Cn2ncc3cnc(Nc4cnn(CCOC)c4)nc32)c1 | AAK1 human | binding, KINOMEscan | – | 100 nM | lower = stronger binding | percent of control | 7.6%
COC1OC(C)C(OC2OC(C)C(O)C(OC3OC(C)C(OC4OC(C)C(O)C(OC5OC(C)C(O)C(OS(=O)(=O)O)C5OS(=O)(=O)O)C4OS(=O)(=O)O)C(OS(=O)(=O)O)C3OS(=O)(=O)O)C2OS(=O)(=O)O)C(OS(=O)(=O)O)C1OS(=O)(=O)O (stereo not shown) | – | – | human plasma | 128 µg/mL | relative to: control | thrombin time prolongation | 0.9 fold
CNS(=O)(=O)Nc1nccc(Cc2c(C)c3ccc(Oc4ncccc4F)cc3oc2=O)c1F | NCI-H1792 | cell viability | – | 7 days | – | IC50 | 0.032 µM
COC1OC(C)C(OS(=O)(=O)O)C(OC2OC(C)C(OS(=O)(=O)O)C(OC3OC(C)C(OS(=O)(=O)O)C(OC4OC(C)C(OS(=O)(=O)O)C(OC5OC(C)C(OS(=O)(=O)O)C(OC6OC(C)C(OS(=O)(=O)O)C(OC7OC(C)C(OS(=O)(=O)O)C(OS(=O)(=O)O)C7OS(=O)(=O)O)C6OS(=O)(=O)O)C5OS(=O)(=O)O)C4OS(=O)(=O)O)C3OS(=O)(=O)O)C2OS(=O)(=O)O)C1OS(=O)(=O)O (stereo not shown) | – | – | human plasma | 128 µg/mL | – | thrombin time | 10.5 ± 0.7 s
Cn1ncc2cc(-c3cncc(Cl)c3N3CCC4(CCNC4=O)CC3)ccc21 | LS174T | gene expression, microarray, item: RRM2 mRNA | – | concentration not given, 24 h | relative to: untreated cells | log2 fold change | -2.53

A few entries again:
Structure (SMILES) | tested on | test | test system | conditions | scale | endpoint | result
COC1OC(C)C(OC2OC(C)C(O)C(OC3OC(C)C(OC4OC(C)C(O)C(OC5OC(C)C(O)C(OS(=O)(=O)O)C5OS(=O)(=O)O)C4OS(=O)(=O)O)C(OS(=O)(=O)O)C3OS(=O)(=O)O)C2OS(=O)(=O)O)C(OS(=O)(=O)O)C1OS(=O)(=O)O (stereo not shown) | – | – | human plasma | 128 µg/mL | relative to: control | thrombin time prolongation | 0.9 fold
CNS(=O)(=O)Nc1nccc(Cc2c(C)c3ccc(Oc4ncccc4F)cc3oc2=O)c1F | NCI-H1792 | cell viability | – | 7 days | – | IC50 | 0.032 µM
